Results gathered from unrelated publications.
± marks the error that the study gave.

SMILES | target or system | assay | test system | setting | how to read | endpoint | value
Oc1ccccc1C1=NN(c2ccccc2)C(c2ccc(C(F)(F)F)cc2)C1 (stereo not drawn) | MCF7 | cell viability, MTT |  | 72 h |  | EC50 | > 500 µM
O=C(O)COc1ccccc1/C=N/NC(=O)CNc1ccc(Cl)cc1 |  | Racine scale 0-5 | male mice, pilocarpine-induced seizures | oral, 20 mg/kg, 0.5 h after pilocarpine, unit not given, with: pilocarpine 300 mg/kg i.p. | higher = more severe | seizure severity | 3.3 ± 0.48
NCCCN1CC(=O)N(CC(c2ccccc2)c2ccccc2)CC(=O)N(CCCN)CC(=O)N(CC(c2ccccc2)c2ccccc2)CC(=O)N(CCCN)CC(=O)N(CC(c2ccccc2)c2ccccc2)CC1=O |  | X-ray reflectivity | DPPG monolayer tails |  |  | extra electrons per lipid | 167 ± 8
Oc1ccccc1C1=NN(c2ccccc2)C(c2cccs2)C1 (stereo not drawn) | HeLa | cell viability, MTT |  | 72 h |  | EC50 | > 500 µM
O=C1Nc2ccc(S(=O)(=O)Nc3ccccc3)cc2C1=C1CCCC1 | RAW264.7 | Western blot, refers to: phospho-IκBα |  | concentration not given, with: LPS 100 ng/mL, 1 h |  | protein level | no effect
CCN(CC)c1ccc(C2CC(c3ccccc3O)=NN2c2ccccc2)cc1 (stereo not drawn) | HeLa | cell viability, MTT |  | 72 h |  | EC50 | > 500 µM
CC(C)C[C@@H]1NC(=O)[C@H](CCCN)NC(=O)[C@H](C(C)C)NC(=O)[C@@H]2CCCN2C(=O)[C@@H](Cc2ccccc2)NC(=O)[C@H](CC(C)C)NC(=O)[C@H](CCCN)NC(=O)[C@H](C(C)C)NC(=O)[C@@H]2CCCN2C(=O)[C@@H](Cc2ccccc2)NC1=O |  | X-ray reflectivity | DPPG monolayer headgroups |  |  | extra electrons per lipid | 135 ± 7
N#Cc1ccc(C2CC(c3ccccc3O)=NN2c2ccccc2)cc1 (stereo not drawn) | MCF7 | cell viability, MTT |  | 72 h |  | EC50 | > 500 µM
O=C(O)COc1ccc(Br)cc1C=NNC(=O)Cc1ccccc1 (mixture of isomers) |  | ELISA | mouse, pilocarpine epilepsy model, hippocampus | oral, 20 mg/kg | reference: pilocarpine group | IL-6 level reduction | 63%
Oc1ccccc1C1=NN(c2ccccc2)C(c2cccc(C(F)(F)F)c2)C1 (stereo not drawn) | HeLa | cell growth or viability, MTT |  | 72 h |  | EC50 | > 500 µM
O=C(O)COc1ccc(Br)cc1/C=N/NC(=O)c1ccccc1 |  |  | mouse, PTZ-induced seizures | oral, 20 mg/kg | reference: valproic acid 300 mg/kg | relative protection | 100%
NCCCN1CC(=O)N(Cc2ccccc2)CC(=O)N(CCCN)CC(=O)N(Cc2ccccc2)CC(=O)N(CCCN)CC(=O)N(Cc2ccccc2)CC1=O |  | X-ray reflectivity | DPPG monolayer tails |  |  | extra electrons per lipid | 0
Oc1ccccc1C1=NN(c2ccccc2)C(c2ccccc2C(F)(F)F)C1 (stereo not drawn) | MCF7 | cell viability, MTT |  | 72 h |  | EC50 | > 500 µM
NCCCN1CC(=O)N(Cc2cc(C(F)(F)F)cc(C(F)(F)F)c2)CC(=O)N(CCCN)CC(=O)N(Cc2cc(C(F)(F)F)cc(C(F)(F)F)c2)CC(=O)N(CCCN)CC(=O)N(Cc2cc(C(F)(F)F)cc(C(F)(F)F)c2)CC1=O |  | X-ray reflectivity | DPPG monolayer tails |  |  | extra electrons per lipid | 283 ± 10
Cc1ccc(C(=O)N/N=C/c2cc(Br)ccc2OCC(=O)O)cc1 |  |  | mouse, pilocarpine-induced seizures | oral, 20 mg/kg, with: pilocarpine 300 mg/kg i.p. |  | latency to forelimb clonus | 13.8 ± 0.49 min
Oc1ccccc1C1=NN(c2ccccc2)C(c2ccc(F)cc2)C1 (stereo not drawn) | HeLa | cell viability, MTT |  | 72 h |  | EC50 | > 500 µM
O=C[C@H](C[C@@H]1CCNC1=O)NC(=O)[C@H](CC1CCCCC1)NS(=O)(=O)c1cccc(Cl)c1 | feline coronavirus | viral replication | CRFK, FIPV-1146 | 36 h |  | EC50 | 0.36 ± 0.12 µM
NCCCN1CC(=O)N(Cc2ccccc2)CC(=O)N(CCCN)CC(=O)N(Cc2ccccc2)CC(=O)N(CCCN)CC(=O)N(Cc2ccccc2)CC(=O)N(CCCN)CC(=O)N(Cc2ccccc2)CC(=O)N(CCCN)CC(=O)N(Cc2ccccc2)CC1=O |  | X-ray reflectivity | DPPG monolayer tails |  |  | extra electrons per lipid | 96 ± 6
O=C(O)COc1ccc(Br)cc1/C=N/NC(=O)CNc1ccc(Cl)cc1 |  |  | mouse, PTZ-induced seizures | oral, 20 mg/kg, 0.5 h, with: PTZ 85 mg/kg i.p. |  | seizure protection | 40%
CC(C)C[C@H](NC(=O)[C@@H](NC(=O)[C@H](CCONC(=N)N)NC(=O)OCc1ccccc1)C(C)C)[C@@H](O)CC(=O)NCCc1ccccc1 | Plasmodium falciparum | parasite growth | 3D7 | 72 h, blood stage |  | EC50 | 0.69 µM
CC(C)C[C@H](NC(=O)OCc1ccccc1)C(=O)N[C@@H](C[C@@H]1CCNC1=O)C(O)S(=O)(=O)O (stereo partly drawn) | feline coronavirus | viral replication | CRFK, FIPV-1146 | 36 h |  | EC50 | 0.05 ± 0.04 µM
CN(C)c1ccc(C2CC(c3ccccc3O)=NN2c2ccccc2)cc1 (stereo not drawn) | HeLa | cell growth or viability, MTT |  | 72 h |  | EC50 | > 500 µM
CC(C)C[C@H](NC(=O)[C@@H](NC(=O)[C@H](CCCNC(=N)N)NS(=O)(=O)Cc1ccccc1)C(C)C)[C@@H](O)CC(=O)NCCc1ccccc1 | Plasmodium falciparum | parasite growth | 3D7 | blood stage |  | EC50 | 6.05 µM
CC(C)C[C@H](NC(=O)OCc1cccc(Cl)c1)C(=O)N[C@H](C=O)C[C@@H]1CCNC1=O | feline coronavirus | viral replication | CRFK, FIPV-1146 | 36 h |  | EC50 | 0.04 ± 0.01 µM

Excerpt of the above:
SMILES | target or system | assay | test system | setting | how to read | endpoint | value
Oc1ccccc1C1=NN(c2ccccc2)C(c2ccc(C(F)(F)F)cc2)C1 (stereo not drawn) | MCF7 | cell viability, MTT |  | 72 h |  | EC50 | > 500 µM
